Measured values gathered from unrelated publications.
Lines come from different studies, so protocols differ.
Organism: Human immunodeficiency virus 1

| Compound | test | test system | setting | endpoint | result |
| --- | --- | --- | --- | --- | --- |
| COc1cc(-c2oc3cc(O)cc(O)c3c(=O)c2O)ccc1O | viral replication, inhibitor | TZM-bl, NL43 | 11.1 µM | inhibition | > 50% |
| COc1ccccc1C(=O)Nc1ccccc1Sc1ccc([N+](=O)[O-])cc1 | viral replication | MT4 | 7 days | IC50 | 52 µM |
| O=c1c(O)c(-c2cc(O)c(O)c(O)c2)oc2cc(O)cc(O)c12 | viral replication, inhibitor | TZM-bl, BAL | 11.1 µM | inhibition | > 50% |
| Cc1cc(C)cc(C(=O)c2cc(C)ccc2OCCn2ccc(=O)[nH]c2=O)c1 | viral replication, inhibitor, luciferase | TZM-bl, IIIB | – | EC50 | 0.0544 µM |
| COc1ccccc1NS(=O)(=O)c1ccccc1Sc1ccc(N)cc1 | viral replication | MT4 | 7 days | IC50 | > 100 µM |
| COc1ccc(-c2cn(C)c3nc(Cl)ccc23)cc1 | cell growth or viability, MTT | TZM-bl | 48 h | IC50 | 79.5 µM |
| O=C(c1cc(Cl)cc(Cl)c1)c1cc(Br)ccc1OCCn1ccc(=O)[nH]c1=O | viral replication, inhibitor, luciferase | TZM-bl, IIIB | – | EC50 | 0.0255 µM |
| Nc1nc(Nc2ccc(Cl)cc2)nn1S(=O)(=O)c1ccc2ccccc2c1 | viral replication, inhibitor, luciferase | TZM-bl, IIIB | – | EC50 | 0.0093 µM |
| CC1=C(c2nc(-c3ccc(C#N)cc3)cs2)C(c2cc3ccccc3n2C)NC(=O)N1 (centres unmarked) | viral replication | MAGI-CCR5, NL43 | – | IC90 | 5 µM |
| COc1ccccc1NS(=O)(=O)c1ccccc1Sc1ccc([N+](=O)[O-])cc1 | viral replication | MT4 | 7 days | IC50 | > 100 µM |
| Cc1ccc(C)n1Cc1ccc(C(=O)O)cc1 | viral replication, inhibitor, ELISA | MT2, IIIB | 96 h | EC50 | 15.6 µM |

A few entries again:
| Compound | test | test system | setting | endpoint | result |
| --- | --- | --- | --- | --- | --- |
| COc1ccccc1NS(=O)(=O)c1ccccc1Sc1ccc(N)cc1 | viral replication | MT4 | 7 days | IC50 | > 100 µM |
| COc1ccc(-c2cn(C)c3nc(Cl)ccc23)cc1 | cell growth or viability, MTT | TZM-bl | 48 h | IC50 | 79.5 µM |
